Published values pooled from the literature.
Compare with care: the assays were run in different laboratories. “And” joins repeats or separate records; there may be more than shown. Numbers after ± are the reported error.

Compound | tested on | test | system | conditions | how to read | measurement | value
Nc1ncnc2c1ncn2C1CCC(OC(C(=O)O)P(=O)(O)O)C1 (racemic) | HIV-1 reverse transcriptase Y115F | enzyme activity, inhibitor | – | with: poly(rU)·oligo(dA), [3H]dATP | baseline: mutant over wild type | fold resistance | 0.8 fold
Cc1ccc(NS(=O)(=O)c2c(C(=O)N3CCCCCC3)c(C)n(C)c2C)c(Cl)c1 | Vaccinia virus | viral infection | HaCaT | 3.704 µM, 36 h | baseline: untreated | infection | 2.2% and 4.91% and 2.3%
CC[C@H](C)[C@H](NC(=O)[C@H](CCCCN)NC(=O)[C@H](CCCCN)NC(=O)[C@H](CC(C)C)NC(=O)[C@H](Cc1c[nH]c2ccccc12)NC(=O)CN)C(=O)NCC(=O)N[C@@H](CCCCN)C(=O)N[C@@H](CCCCN)C(=O)N[C@H](C(=O)N[C@@H](CCC(=O)O)C(=O)N[C@@H](CCCNC(=N)N)C(=O)N[C@H](C(=O)NCC(=O)N[C@@H](CCC(N)=O)C(=O)N[C@@H](Cc1c[nH]cn1)C(=O)N[C@H](C(=O)N[C@@H](CCCNC(=N)N)C(=O)N[C@@H](CC(=O)O)C(=O)N[C@@H](C)C(=O)N[C@H](C(=O)N[C@H](C(=O)N[C@@H](CCC(N)=O)C(=O)N[C@H](C(=O)N[C@H](C(=O)NCC(=O)N[C@H](C(=O)N[C@@H](C)C(=O)N[C@@H](CCC(N)=O)C(=O)N[C@@H](CCC(N)=O)C(=O)N[C@@H](C)C(=O)N[C@@H](C)C(=O)N[C@@H](CC(N)=O)C(=O)N[C@H](C(=O)N[C@@H](C)C(=O)N[C@@H](C)C(=O)N[C@H](C(=O)N[C@@H](CC(C)C)C(=O)N[C@@H](CCCCN)C(N)=O)[C@@H](C)O)C(C)C)C(C)C)[C@@H](C)CC)[C@@H](C)O)[C@@H](C)CC)[C@@H](C)O)[C@@H](C)O)C(C)C)[C@@H](C)CC | Gram-positive bacteria, Candida albicans | – | reference strains, CAMHB | – | – | MIC | ≥ 1020 µg/mL
Cn1ccn2cc(C(=O)NCc3ccc(F)cc3F)c(=O)c(O)c2c1=O | human immunodeficiency virus 1 | single-round vector infection | integrase S230N | – | – | EC50 | 7.9 ± 0.9 nM
Cc1cc(/C=C/C#N)cc(C)c1Nc1nc(Nc2ccc(C#N)cc2)ncc1N | HIV-1 | viral replication, single-round infection | RT mutant K101P | – | – | EC50 | 9 ± 2.3 nM
COCCCCCCn1ccn2cc(C(=O)NCc3ccc(F)cc3F)c(=O)c(O)c2c1=O | human immunodeficiency virus 1 | single-round vector infection | integrase R263K | – | – | EC50 | 5 ± 0.2 nM
COc1ccc(-c2cnnn2-c2cc(OC)c(OC)c(OC)c2)cc1N | MDA-MB-231 | cytotoxicity, nuclei counting | – | 24 h | – | EC50 | 11.2 ± 0.76 nM
COCCn1ccn2cc(C(=O)NCc3ccc(F)cc3F)c(=O)c(O)c2c1=O | human immunodeficiency virus 1 | single-round vector infection | integrase N155H | – | – | EC50 | 11.9 ± 2.3 nM
CC[C@H](C)[C@H](NC(=O)[C@H](Cc1ccccc1)NC(=O)[C@@H](NC(=O)[C@@H](NC(=O)[C@H](CC(C)C)NC(=O)[C@H](CCCCN)NC(=O)[C@@H](N)CCCCN)[C@@H](C)CC)[C@@H](C)O)C(=O)N[C@@H](CC(C)C)C(=O)N[C@@H](CCCNC(=N)N)C(=O)N[C@@H](CCCNC(=N)N)C(=O)N[C@H](C(=O)N[C@@H](CCCNC(=N)N)C(=O)N[C@@H](CCC(=O)O)C(=O)N[C@@H](CCCCN)C(=O)N[C@@H](CCCCN)C(=O)N[C@@H](CCCCN)C(=O)N[C@@H](CCC(=O)O)C(=O)N[C@@H](CS)C(=O)N[C@@H](CC(C)C)C(=O)N[C@H](C(=O)O)C(C)C)[C@@H](C)O | TTX-sensitive sodium channel (mouse) | resurgent sodium current, open-channel blocker, whole-cell patch clamp | mouse hippocampal CA3 neurons | 200 µM intracellular, 22 °C, step to +30 mV, 10 ms, with: repolarisation to -30 mV | – | decay time constant | 27.5 ± 0.9 ms
O=C(NCc1ccc(F)cc1F)c1cn2ccn(CCCCCO)c(=O)c2c(O)c1=O | human immunodeficiency virus 1 | single-round vector infection | integrase N155H | – | – | EC50 | 33.3 ± 8.8 nM
CC(C)C[C@H](NC(=O)[C@H](Cc1ccc(OP(=O)(O)O)cc1)NC(=O)[C@H](CCC(=O)O)NC(=O)[C@H](CC(=O)O)NC(=O)[C@H](C)NC(=O)[C@H](CC(=O)O)NC(=O)[C@@H](NC(=O)CCCCCNC(=O)CCCC[C@@H]1SC[C@@H]2NC(=O)N[C@@H]21)C(C)C)C(N)=O | YopH | – | Yersinia pestis | – | – | dephosphorylation | 96%
O=C(NC1CCN(c2ncnc3[nH]cnc23)CC1)c1cccc(NS(=O)(=O)c2ccc(C(F)(F)F)cc2)c1 | monkeypox virus E1/E12 | – | – | 0.04883 µM | – | inhibition | 14.8%
CC(C)C[C@H](NC(=O)[C@@H]1CCCN1C(=O)[C@@H]1CCCN1C(=O)[C@H](CCCNC(=N)N)NC(=O)[C@H](CCCNC(=N)N)NC(=O)[C@H](CCCNC(=N)N)NC(=O)[C@H](CCC(N)=O)NC(=O)[C@H](CCCNC(=N)N)NC(=O)[C@H](CCCNC(=N)N)NC(=O)[C@H](CCCCN)NC(=O)[C@H](CCCCN)NC(=O)[C@H](CCCNC(=N)N)NC(=O)CNC(=O)[C@@H](N)Cc1ccc(O)cc1)C(=O)N[C@@H](CCCNC(=N)N)C(=O)N[C@@H](CCCCN)C(=O)N[C@@H](CCCCN)C(=O)N[C@@H](CCCCN)C(=O)N[C@@H](CCCCN)C(=O)N[C@@H](CCCCN)C(=O)N[C@@H](Cc1c[nH]cn1)C(N)=O | – | 8-Br-cGMP-induced vasodilation | mouse, mesenteric resistance arteries | dose not given, intraluminal perfusion, 80 mmHg, with: 8-Br-cGMP | – | inhibition | ~30%
Cc1cc(/C=C/C#N)cc(C)c1-n1cnc2cnc(Nc3ccc(C#N)cc3)nc21 | HIV-1 | viral replication, single-round infection | RT mutant G190S | – | – | EC50 | 0.1 ± 0.01 nM

Repeated from above:
Compound | tested on | test | system | conditions | how to read | measurement | value
Cc1cc(/C=C/C#N)cc(C)c1-n1cnc2cnc(Nc3ccc(C#N)cc3)nc21 | HIV-1 | viral replication, single-round infection | RT mutant G190S | – | – | EC50 | 0.1 ± 0.01 nM
